Measured values pooled from the literature.
Compare with care: the assays were run in different laboratories. Values joined by “and” are separate records of one study, mostly repeats; a detail may differ. ± gives the spread as reported.
TDP1: Tyrosyl-DNA phosphodiesterase 1 (TDP1, Homo sapiens, UniProt Q9NUW8)
Sequence of UniProt Q9NUW8 (whole entry, looked up): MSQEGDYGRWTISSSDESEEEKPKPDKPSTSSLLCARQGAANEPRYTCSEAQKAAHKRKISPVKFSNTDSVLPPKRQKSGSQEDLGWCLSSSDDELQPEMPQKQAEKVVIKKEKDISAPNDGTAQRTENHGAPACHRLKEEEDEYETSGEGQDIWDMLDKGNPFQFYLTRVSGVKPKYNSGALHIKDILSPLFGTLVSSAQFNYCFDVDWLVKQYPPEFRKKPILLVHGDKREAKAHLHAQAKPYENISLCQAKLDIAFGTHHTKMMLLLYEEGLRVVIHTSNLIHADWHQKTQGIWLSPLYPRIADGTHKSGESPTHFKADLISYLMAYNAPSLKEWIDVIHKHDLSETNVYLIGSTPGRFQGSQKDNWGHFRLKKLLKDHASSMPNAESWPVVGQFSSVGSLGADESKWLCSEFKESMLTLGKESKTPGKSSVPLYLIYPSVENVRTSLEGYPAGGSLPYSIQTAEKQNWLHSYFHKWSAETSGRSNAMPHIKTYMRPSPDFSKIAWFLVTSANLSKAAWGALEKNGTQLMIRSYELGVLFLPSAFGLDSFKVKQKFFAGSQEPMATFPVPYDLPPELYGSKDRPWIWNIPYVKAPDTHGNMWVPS
Sequence of UniProt P0A7A9 (whole entry, looked up): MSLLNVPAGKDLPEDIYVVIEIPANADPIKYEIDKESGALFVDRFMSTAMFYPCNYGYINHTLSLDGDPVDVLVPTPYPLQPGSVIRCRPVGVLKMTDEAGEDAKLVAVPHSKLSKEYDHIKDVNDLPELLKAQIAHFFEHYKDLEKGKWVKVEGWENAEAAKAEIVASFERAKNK

`CN1CCC[C@]1(C)/C=C/S(=O)(=O)NC(=O)Nc1c2c(cc3c1CCC3)CCC2` gave an IL-18 inhibition of 88.9% (human, whole blood ex vivo; 100 mg twice daily, day 1, 3 h, multiple ascending dose, with: LPS and ATP).
The inhibition of `O=C(O)c1ccc(Nc2c(-c3ccc(CON=Cc4cc(Br)c(Br)o4)cc3)nc3cc(-c4ccccc4)ccn23)cc1` is reported as 91.9% (TDP1; enzyme activity, inhibitor; 100 µM, unpurified compound).
For `NC[C@@H](C(=O)Nc1ccc(-c2cn[nH]c2)cc1)c1ccccc1`, the IOP was 17.1 mmHg (tonometry; Macaca cyclopis, ocular normotensive; ocular, 0.1%, 48 h).
For `COc1cc2c(NC3CCN(C(C)C)CC3)cc(N3CCOCC3)nc2cc1OCCCN1CCCC1`, “log2 fold change” read -0.0344 (TMT proteomics, measured: YWHAZ; 5xFAD mice, hippocampus; dose not given; baseline: untreated 5xFAD mice).
`CC[C@H](C)[C@@H](C(=O)N[C@@H](CC(C)C)C(=O)N[C@@H](CO)C(=O)N[C@@H](CO)C(=O)N[C@H](C(=O)N[C@@H](CCC(=O)O)C(=O)N[C@H](C(=O)NCC(=O)N[C@@H](CO)C(=O)N[C@@H](CC(N)=O)C(=O)N[C@H](C(=O)N1C[C@H](O)C[C@H]1C(N)=O)[C@@H](C)O)C(C)C)[C@@H](C)O)N(C)C(=O)[C@H](C)NC(=O)CN(C)C(=O)[C@H](Cc1ccccc1)NC(=O)[C@H](CO)NC(=O)[C@H](CO)NC(=O)[C@H](CCCNC(=N)N)NC(=O)[C@H](CCC(N)=O)NC(=O)[C@H](CC(C)C)NC(=O)[C@H](Cc1ccccc1)NC(=O)[C@H](CC(=O)O)NC(=O)[C@H](C)NC(=O)[C@H](CC(C)C)NC(=O)[C@H](CCCNC(=N)N)NC(=O)[C@H](CCC(N)=O)NC(=O)[C@@H](NC(=O)[C@H](C)NC(=O)[C@@H]1CSSC[C@H](NC(=O)[C@H](CCCNC(=N)N)NC(=O)CC[C@H](NC(=O)CCCCCCCCCCCCCCCCCCC(=O)O)C(=O)O)C(=O)N[C@@H](CC(N)=O)C(=O)N[C@@H]([C@@H](C)O)C(=O)N[C@@H](C)C(=O)N[C@@H]([C@@H](C)O)C(=O)N1)[C@@H](C)O` has a food intake of 75.7 ± 1.7% (male Sprague-Dawley rats; subcutaneous, 30 nmol/kg single dose, 24 h; baseline: vehicle).
With `COc1cnc2cccc(N3CCc4c(cc(Cn5ccnc5)cc4-c4cn(C)nc4C(F)(F)F)C3=O)c2c1` the tumour volume was 150 mm3 and 166 mm3 and 125 mm3 and 157 mm3 and 152 mm3 (BALB/c nude mice, MV4-11 xenograft; intraperitoneal, 75 mg/kg, day 10).
Under “objective response rate”, `COCC1CN(C2CCN(c3cc(OC)c(Nc4ncc(Br)c(Nc5ccc6c(c5P(C)(C)=O)OCCO6)n4)cc3C)CC2)C1` is recorded as 0% (RECIST 1.1; advanced EGFR-mutant NSCLC patients; 60 mg once daily).
`CC(C)(C)NCC(SS(=O)(=O)O)c1ccccc1` (centres unmarked) has a spleen weight of 0.13 g and 0.14 g and 0.15 g (mouse infected with Schistosoma mansoni; 600 mg/kg, day 21 post-infection dosing once, perfusion day 52 post-infection).
`COc1c(Cl)cccc1Nc1c(-c2ccncc2C#C[C@@]2(C)CCCN2C(=O)/C=C/CN(C)C)[nH]c2c1C(=O)NCC2` has a tumour regression of 100% (female NOD/SCID mouse, PDX; 50 mg/kg once daily, 21 days, HER2 YVMA).
`O=C(O)c1ccc(Nc2c(-c3ccc(CON=Cc4cc5cccnc5s4)cc3)nc3cc(-c4ccccc4)ccn23)cc1` gave an inhibition of 85.6% (TDP1; enzyme activity, inhibitor; 100 µM, unpurified compound).
Under “chain scission rate constant”, `CCC(=O)N[C@@H](C)C(=O)OCC(=O)N[C@@H](C)C(=O)O` is recorded as 0.0139 h⁻¹ (water; pH 5, 65 °C).
The 15-HETE level of `COc1ccc(C(=O)CCc2cc(C(CCc3ccc(O)cc3OC)c3ccc(O)cc3)c(O)cc2OC)cc1` (racemic) is reported as 277 ± 100 pg/mL (human blood; 10 µM, with: A23187).
`CC(=O)[O-].O.[Cu+2].[O-]c1ccc(Br)cc1C=NCCN1CCOCC1` has an inhibition of 35.2% (nitric oxide scavenging; 160 µM).
With `CC(C)=CCc1cc(C(=O)/C=C/c2ccc(O)cc2)c(O)cc1O` the Vmax was 229 ± 28.3 pmol/min/mg (phase I metabolism; rat liver microsomes).
The inhibition of `COc1ccc(C2CC(Nc3ccc(-c4ccc(NC5=NN(C(C)=O)C(c6ccc(OC)cc6)C5)cc4)cc3)=NN2C(C)=O)cc1` (centres unmarked) is reported as 69.2% (carrageenan paw oedema; albino rat; oral, 100 mg/kg, 3 h).
`Cc1cccc(C)c1CNc1cc(C(=O)N2CCC2)cn2c(C)c(C)nc12` gave an inhibition of 100% (esophageal lesions; rat reflux esophagitis model; oral, 2 mg/kg).
For `CCC(CC)n1c(Cc2cccs2)nc2cc(C(=O)N[C@@H](CC(=O)O)c3ccccc3)ccc21`, “E/A and E/e' ratio” read “decreased” (mouse, HFpEF model (HFD plus L-NAME); ip, 20 mg/kg/day, 2 wk).
The IC50 of `CC(C)(C)OC(=O)C[N+](C)(C)CCCN1c2ccccc2CCc2ccc(Cl)cc21` is reported as 38.9 µM (ppa (Escherichia coli, UniProt P0A7A9); inhibitor, counter-screen, coupling enzyme alone).
The tumour volume of `CCCCCc1ccc(S(=O)(=O)N2CC2C(=O)OC)cc1` (centres unmarked) is reported as 564 mm3 (mouse, Lewis lung carcinoma; intraperitoneal, 15 mg/kg, 16 doses, day 14).
`CN(C)c1ccc(C=CC(=O)Nc2ccc(-c3ccc(NC(=O)C=Cc4ccc(N(C)C)cc4)cc3)cc2)cc1` has an inhibition of 15.2% (carrageenan paw oedema; albino rat; oral, 50 mg/kg, 3 h).
The TΔS of `COCCOCCOCCNC(=O)Cc1cc(CC(=O)N[C@H]2C[C@H]3C(=O)Nc4cc(OCCOCCOCCOC)cc(n4)C(=O)N4CCC[C@H]4C(=O)Nc4cc(OCCOCCOCCOC)cc(n4)C(=O)N4CCC[C@H]4C(=O)Nc4cc(OCCOCCOCCOC)cc(n4)C(=O)N3C2)cc(CC(=O)N[C@H]2C[C@H]3C(=O)Nc4cc(OCCOCCOCCOC)cc(n4)C(=O)N4CCC[C@H]4C(=O)Nc4cc(OCCOCCOCCOC)cc(n4)C(=O)N4CCC[C@H]4C(=O)Nc4cc(OCCOCCOCCOC)cc(n4)C(=O)N3C2)c1` is reported as 6.142 ± 0.0478 kcal/mol (anion binding, ITC; water/methanol 95 vol% (97.7 mol%); 298 K, with: sodium sulfate).
The 12-HETE level of `COc1cc(O)ccc1CCC(c1ccc(O)cc1)c1cc2c(c(C)c1O)OC(c1ccc(O)cc1)CC2` (mixture of isomers) is reported as 7540 ± 2540 pg/mL (human blood; 10 µM, with: A23187).
For `COC1CN([C@H]2CC[C@H]([C@@]3(C)Oc4c(Cl)cc(C(=O)NCc5c(SC)cc(C)[nH]c5=O)c(C)c4O3)CC2)C1`, “log2 fold change” read 0.504 (RNA-seq, measured: CHST2 mouse homolog; mouse, HT-1376 xenograft, whole blood; dose not given; baseline: vehicle).

For quick reference, copied from above:
`CN(C)c1ccc(C=CC(=O)Nc2ccc(-c3ccc(NC(=O)C=Cc4ccc(N(C)C)cc4)cc3)cc2)cc1` has an inhibition of 15.2% (carrageenan paw oedema; albino rat; oral, 50 mg/kg, 3 h).
The TΔS of `COCCOCCOCCNC(=O)Cc1cc(CC(=O)N[C@H]2C[C@H]3C(=O)Nc4cc(OCCOCCOCCOC)cc(n4)C(=O)N4CCC[C@H]4C(=O)Nc4cc(OCCOCCOCCOC)cc(n4)C(=O)N4CCC[C@H]4C(=O)Nc4cc(OCCOCCOCCOC)cc(n4)C(=O)N3C2)cc(CC(=O)N[C@H]2C[C@H]3C(=O)Nc4cc(OCCOCCOCCOC)cc(n4)C(=O)N4CCC[C@H]4C(=O)Nc4cc(OCCOCCOCCOC)cc(n4)C(=O)N4CCC[C@H]4C(=O)Nc4cc(OCCOCCOCCOC)cc(n4)C(=O)N3C2)c1` is reported as 6.142 ± 0.0478 kcal/mol (anion binding, ITC; water/methanol 95 vol% (97.7 mol%); 298 K, with: sodium sulfate).
The 12-HETE level of `COc1cc(O)ccc1CCC(c1ccc(O)cc1)c1cc2c(c(C)c1O)OC(c1ccc(O)cc1)CC2` (mixture of isomers) is reported as 7540 ± 2540 pg/mL (human blood; 10 µM, with: A23187).
